# Measured values from different studies.
# Every numbered part comes from another study and shows a few of its results, in no order. Positions count from the first letter of the parent shown.

# Study 1 — method: universal PBM; molecule type: double-stranded DNA, one strand shown; medium: in vitro; concentration: not given; direction: higher = stronger binding
# Target: Sal-like protein 4, full length isoform B (SALL4, Homo sapiens, UniProt Q9UJQ4-2, residues 1-616)
# Setting: 8-mer, flanks averaged, mean of replicates
# Target sequence (chain): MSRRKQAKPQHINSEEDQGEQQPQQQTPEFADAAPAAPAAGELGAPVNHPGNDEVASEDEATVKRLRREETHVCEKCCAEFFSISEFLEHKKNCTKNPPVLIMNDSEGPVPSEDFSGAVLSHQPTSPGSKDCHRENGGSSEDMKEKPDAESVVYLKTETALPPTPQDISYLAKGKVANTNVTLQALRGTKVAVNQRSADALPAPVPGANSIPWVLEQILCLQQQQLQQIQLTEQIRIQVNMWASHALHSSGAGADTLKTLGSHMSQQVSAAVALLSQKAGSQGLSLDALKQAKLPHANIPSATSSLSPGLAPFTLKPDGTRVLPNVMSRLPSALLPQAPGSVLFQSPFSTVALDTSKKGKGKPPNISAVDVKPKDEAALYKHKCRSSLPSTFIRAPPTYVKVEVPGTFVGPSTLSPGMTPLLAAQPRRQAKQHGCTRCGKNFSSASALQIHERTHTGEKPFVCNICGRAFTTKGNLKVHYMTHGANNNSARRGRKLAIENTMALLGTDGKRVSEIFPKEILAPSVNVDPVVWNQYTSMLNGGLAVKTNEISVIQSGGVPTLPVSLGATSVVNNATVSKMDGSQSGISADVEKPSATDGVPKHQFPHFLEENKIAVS
Oligonucleotide,E-score
GGGTGAAA,0.0059
CCATGTCA,-0.131
ACTATTAA,0.348
GATGGACA,-0.0662
CGCTCTTC,-0.085
CCGATCAC,-0.0398
TAGAATAA,0.285
AACCAACA,0.118
CGTAACAC,0.077
GTGTCGGA,-0.13
CGGAGCGC,-0.326
TGGGTACA,-0.102
CCGTGCTC,-0.305
GACAATTA,0.318
ATGAGAGC,-0.0101
GATGCTGC,-0.0566
GAGCCAAA,-0.135
CGCATCCG,-0.205
CTCGTTCA,0.0603
CTAAAGGC,-0.0501
GTGATGGA,-0.0692
CGACAGGA,0.0102
AAGGCCCG,-0.379
ACCACTCG,-0.159

# Study 2 — method: RNA Bind-n-Seq; molecule type: RNA; medium: in vitro; concentration: 365 nM; baseline: no-protein control; direction: higher = stronger binding
# Target: RNA binding protein fox-1 homolog 2, RRM domain, GST-SBP tag (RBFOX2, Homo sapiens, UniProt O43251-10, residues 100-194)
# Setting: natural RNA segment, single round, ends assumed
# Target sequence (chain): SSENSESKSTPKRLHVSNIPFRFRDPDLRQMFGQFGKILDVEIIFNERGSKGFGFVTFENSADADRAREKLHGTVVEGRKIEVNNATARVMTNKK
Oligonucleotide,RBNS enrichment (R)
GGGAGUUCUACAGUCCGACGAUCUCUUGGGCGUUACAGCCUUUGUCUUUUUCUUUAGUCACCUUAAUACCCAGUCCUAUGCUGUAUCUCUGAUAGCCUAUAUAAAUGACAUAUAGGAAUAUUAUUUUCCAUAUUGGAAUUCUCGGGUGCCAA,0.584
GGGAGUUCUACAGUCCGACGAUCCUCGGCUUGUCCUUGUCCCAUGUGUUUGUAGACACACAUGCAUACUGUCCAAAGAUUAGGGUUGGUGGUGGCAGUGCAGCAGGGGAGGGACAAACAACCAAGCUAUGGGUUGGAAUUCUCGGGUGCCAA,1.06
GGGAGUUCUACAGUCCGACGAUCCGGGCUCCACGCUUUUGCUGUCCUUGACACCUCUCGUUGGGGCUUCUGCAGGCAUCUCUGUCUGAGAGCAGUGGGGGCUGCCCUCUGUAGAGCUGUGAGAGCAGUGGGGGUGGAAUUCUCGGGUGCCAA,0.486
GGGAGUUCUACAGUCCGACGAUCCAAAAUGAGGGAGAAACAUUUGCCUGCCUUGUAAUAACAAGACUCAGUGCUUAUUUUUUAAACUGCAUUUUAAAAAUUGGAUAGUAUAAUAACAAUAAGGAGUAAGCCACUGGAAUUCUCGGGUGCCAA,0.35
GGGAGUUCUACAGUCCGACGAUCCCAGGAUGGUCUCGAUCUCCUGACCUUGUGAUCCACCCGCCUCAGCCUCCCAAAGUGCUGAGAUUACAGGCGUGAGCCACCGCGCCUGGCCUAUUUCCAGUUUUAUGUGAUGGAAUUCUCGGGUGCCAA,0.308
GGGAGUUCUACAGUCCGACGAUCGUCAGUGGAGGGAAGCAGAGCUUUGAGUGACACACGAGUGUUGGGGUUUCCUGCUGCCUGCCCUGGCCCGUGAGAGACGCACGCAACAAACGGAAGAAUUAGAGACGUCCUGGAAUUCUCGGGUGCCAA,2.65
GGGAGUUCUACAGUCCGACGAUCAGCAGAAGGUCAGGAUAGCAUGAGAUAGUCUCAAUGUGGCCAACCAAAAGGACAAAACUGACAGGAAUGCACAUUCGAUUUUCAAGCCCUCCAGAGCUUGAACAACAACUUGGAAUUCUCGGGUGCCAA,3.76
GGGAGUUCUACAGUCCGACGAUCAAAAAACCUAUUUUAUGCUUUGUUAAAAUUAUGGUGUCACUUAGAUUGACUUUAGUUGACUGCACUAUAUAAUAUAGAACUAUGAAUAUGUAGAAUAACAUGAAAAAUUGUGGAAUUCUCGGGUGCCAA,0.452
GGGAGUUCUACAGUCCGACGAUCCACUGUGGGGCAUUUCACCAUUCAAACAGGUCGAGCUGUGCUCGGGUGCUGCCAGCUGCUCCCAAUGUGCCGAUGUCCGUGGGCAGAAUGACUUUUAUUGAGCUCUUGUUUGGAAUUCUCGGGUGCCAA,0.618
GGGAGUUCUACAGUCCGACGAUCGAUUGUGUUGGGGGAGGGACUGACUGUACUCAUGGCUAACUUAAAGUAUUAAAAUAAGGCUGUCCCCUACAACCUUCUUAGUCACACAGGAUCCCUGUAGCCAAAACAGUUGGAAUUCUCGGGUGCCAA,0.786
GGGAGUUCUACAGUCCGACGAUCCUGCUGUCACAGGCUGACACCUUACAGAUGUCCUGACCAUGGGUGACCCUCCUCGGAGCGUCCAGAUCCCCUCCUGCUCUGCUCUAUUACCUACUAGUGGUCCCUGGCAGUGGAAUUCUCGGGUGCCAA,0.511
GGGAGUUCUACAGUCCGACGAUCGGGGCCAGGAUUUUCCCUGGUCAGAUGCCAAGUAACAUGUGGUUUUCUGCCAUACUUUUCUCCAUUGGCCCAGGUAGGCUAAUUGGUAGUUGUUCAUUUCAGCCUCUGGAUGGAAUUCUCGGGUGCCAA,0.239

# Study 3 — method: RNAcompete; molecule type: RNA; medium: in vitro; concentration: 20 nM; setting: 7-mer, probes averaged, single round; baseline: mean of 7-mers; direction: higher = stronger binding
# Target: PABPC1L2, full length, GST fusion (mouse, UniProt A0ABA7IW68)
# Residues (chain): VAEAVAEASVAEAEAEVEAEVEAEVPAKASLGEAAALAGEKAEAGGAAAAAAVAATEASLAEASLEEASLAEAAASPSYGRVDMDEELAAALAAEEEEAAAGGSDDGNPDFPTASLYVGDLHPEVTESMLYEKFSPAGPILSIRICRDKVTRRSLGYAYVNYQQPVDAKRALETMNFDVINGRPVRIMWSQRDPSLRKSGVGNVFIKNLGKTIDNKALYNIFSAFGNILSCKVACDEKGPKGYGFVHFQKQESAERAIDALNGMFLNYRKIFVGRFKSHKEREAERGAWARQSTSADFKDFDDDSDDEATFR
Oligonucleotide,7-mer Z-score
UGGCCAA,-0.0953
UGGUGGC,0.00436
UCCCUAU,-0.4
CUUUAUA,0.0134
GUUAGGA,-0.0645
CCAUCCU,-0.374
GAUGUCA,-0.17
CGUCUCG,-0.32
CAUCUAU,-0.298
CGAAUGC,-0.177
UUCAGUA,-0.159
GCAGGCU,0.0823
ACCCCAA,-0.132
GACUUGU,-0.378
UAAAGCG,0.867
CAGUAUA,-0.191
CAUAUAA,0.374
AUUCCGU,-0.257
CCUUCAU,-0.287
CGGAGUG,-0.175
CAAUGCC,-0.195
GAUGCGU,-0.177
UUGGAAU,-0.18
GGCUGUA,-0.00652
UUGCCUC,-0.387

# Study 4 — method: protein binding microarray; molecule type: double-stranded DNA, one strand shown; medium: in vitro; concentration: not given; baseline: not given; direction: higher = stronger binding
# Target: Histone acetyltransferase KAT6A, both winged helices, GST fusion (KAT6A, Homo sapiens, UniProt Q92794, residues 1-181)
# Setting: 8-mer, flanks averaged, mean of 2 arrays, mostly near background
# Residues (chain): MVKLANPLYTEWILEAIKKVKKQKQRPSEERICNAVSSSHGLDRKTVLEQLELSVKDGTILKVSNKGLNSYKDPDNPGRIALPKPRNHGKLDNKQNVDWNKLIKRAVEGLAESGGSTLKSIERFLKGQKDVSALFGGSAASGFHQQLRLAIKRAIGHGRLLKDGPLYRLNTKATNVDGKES
Oligonucleotide,E-score
GAAAATAA,-0.0418
CGCCGCCC,0.284
CCGCAAAA,0.195
ACCTTGGC,-0.154
TACCGATA,0.0641
TTGATAAA,-0.0637
GTATTCGA,-0.107
GAAGTCTA,-0.247
GGCTAGAC,-0.031
CCTGTCTA,-0.15
GGGATGGA,-0.146
AACAGCAC,0.0689
GGATAAAC,0.0357
GTTGGGAA,-0.217
GATAGGAA,-0.113
CGATTTCC,-0.0136
TATATTCA,0.031
ATACTGAT,0.0345
AGAAGTCG,-0.021
ACCGCGCC,0.332
GGTCGTAA,0.156
CGTCGCAC,0.26
CAGCAGGA,-0.247
AACTGTCA,-0.00975
TGGTGGAA,-0.149

# Study 5 — method: DHFR PCA, deep sequencing; medium: yeast; together with: (+)-ABA 200 µM; baseline: wild-type fitted maximum; direction: higher = stronger binding
# Target: ABI1, truncated, D143A, DHFR fusion (Arabidopsis thaliana)
# Setting: methotrexate growth selection, single substitutions
# Starting sequence: PYL1, truncated, DHFR fusion (Arabidopsis thaliana); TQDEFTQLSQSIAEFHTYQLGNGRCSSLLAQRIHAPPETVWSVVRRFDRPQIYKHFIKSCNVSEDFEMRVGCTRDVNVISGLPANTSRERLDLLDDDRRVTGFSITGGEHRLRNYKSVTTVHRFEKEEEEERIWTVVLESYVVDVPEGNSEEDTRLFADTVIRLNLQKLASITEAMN; partner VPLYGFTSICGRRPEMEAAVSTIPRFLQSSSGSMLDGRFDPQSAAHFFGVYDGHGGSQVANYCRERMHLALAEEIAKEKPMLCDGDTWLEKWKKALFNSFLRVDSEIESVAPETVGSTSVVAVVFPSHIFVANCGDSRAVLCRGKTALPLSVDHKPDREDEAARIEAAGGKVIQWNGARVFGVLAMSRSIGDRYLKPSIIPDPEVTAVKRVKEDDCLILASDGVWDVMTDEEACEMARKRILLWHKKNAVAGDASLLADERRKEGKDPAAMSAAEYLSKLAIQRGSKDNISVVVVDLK
Substitution,relative binding score [%]
K54E,-0.516
W134R,86.9
D75K,104
T86S,102
P37V,99.6
G108I,6.89
Q10G,101
T39C,91.8
T119H,16
R74C,-3.58
A13F,93.9
G21C,98.9
V43Y,92.4
T154M,83.4
R69K,104
N165Q,21.2
G107N,84.9
P50H,10.9

# Some of these lines once more (study 1):
Oligonucleotide,E-score
CCGTGCTC,-0.305
GACAATTA,0.318
ATGAGAGC,-0.0101
GATGCTGC,-0.0566
GAGCCAAA,-0.135
CGCATCCG,-0.205
CTCGTTCA,0.0603
